Measured values of several laboratories.
Each line is one published result; not all experiments were run side by side. Values joined by “and” are separate records of one study, mostly repeats; a detail may differ. ± gives the spread as reported.
Sequence of UniProt P33261 (whole entry, looked up): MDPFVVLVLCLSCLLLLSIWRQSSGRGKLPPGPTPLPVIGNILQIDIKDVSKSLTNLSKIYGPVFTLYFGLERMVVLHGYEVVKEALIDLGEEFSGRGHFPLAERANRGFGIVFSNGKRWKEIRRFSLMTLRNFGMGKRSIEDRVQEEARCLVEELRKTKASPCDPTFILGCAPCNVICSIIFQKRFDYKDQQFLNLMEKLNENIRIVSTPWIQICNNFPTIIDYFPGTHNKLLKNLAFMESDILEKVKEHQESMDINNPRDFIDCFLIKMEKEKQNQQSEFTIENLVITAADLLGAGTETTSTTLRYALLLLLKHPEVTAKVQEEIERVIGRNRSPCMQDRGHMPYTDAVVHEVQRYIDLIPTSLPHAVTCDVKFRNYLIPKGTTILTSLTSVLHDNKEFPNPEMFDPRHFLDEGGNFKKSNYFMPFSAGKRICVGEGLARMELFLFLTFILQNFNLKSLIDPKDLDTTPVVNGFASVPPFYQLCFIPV
Sequence of UniProt P08684 (whole entry, looked up): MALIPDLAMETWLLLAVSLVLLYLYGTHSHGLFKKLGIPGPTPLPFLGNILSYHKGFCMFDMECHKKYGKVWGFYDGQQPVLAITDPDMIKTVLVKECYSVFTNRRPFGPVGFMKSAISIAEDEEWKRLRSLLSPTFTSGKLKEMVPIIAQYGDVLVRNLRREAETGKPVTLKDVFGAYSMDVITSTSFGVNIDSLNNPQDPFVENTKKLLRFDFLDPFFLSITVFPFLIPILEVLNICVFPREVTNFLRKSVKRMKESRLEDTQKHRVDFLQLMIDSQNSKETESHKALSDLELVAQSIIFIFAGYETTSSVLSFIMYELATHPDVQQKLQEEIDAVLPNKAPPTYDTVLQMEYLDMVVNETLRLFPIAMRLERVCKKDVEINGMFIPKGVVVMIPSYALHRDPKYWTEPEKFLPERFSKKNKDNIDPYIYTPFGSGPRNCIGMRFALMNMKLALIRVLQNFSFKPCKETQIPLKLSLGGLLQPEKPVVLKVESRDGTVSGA

Compound = Cc1noc(C)c1Cn1cc(N2C(=O)CN(Cc3cccc(O)c3)C2=O)cn1; tested on = human blood lymphocytes; setting = 1200 µg/mL, 3 h, with 5% S9; endpoint = aberrant cells with gaps; result = 3.9%
Compound = CC(C)NCC(O)c1ccc(NS(C)(=O)=O)cc1 (racemic); system = male Hartley guinea pig, anaesthetized; setting = intravenous, 10 mg/kg, baseline before infusion; endpoint = QTc interval; result = 324 ± 0.7 ms
Compound = C[C@]12CC[C@@H]3c4ccc(O)cc4C[C@@H](CCCCCCCCC[S+]([O-])CCCC(F)(F)C(F)(F)F)[C@H]3[C@@H]1CC[C@@H]2O (stereo partly drawn); tested on = LCC2 tamoxifen-resistant; assay = CCK-8; setting = 400 nM; scale = reference: untreated; endpoint = viability; result = 88.7% and 84.3% and 93.3%
Compound = CC[C@H]1[C@@H](O)[C@@H]2[C@H](CC[C@]3(C)[C@@H]([C@H](C)CCNC(=O)NS(=O)(=O)c4ccc(C(C)(C)C)cc4)CC[C@@H]23)[C@@]2(C)CC[C@@H](O)C[C@@H]12; tested on = Cytochrome P450 3A4 (CYP3A4, Homo sapiens, UniProt P08684); system = human, plasma; setting = 10 mg, day 1, compound alone; endpoint = half-life geometric mean; result = 11.8 h
Compound = COc1cccc2c1C(=O)c1c(O)c3c(c(O)c1C2=O)C[C@@](O)(C(=O)CO)C[C@@H]3O[C@H]1C[C@H](N)[C@H](O)[C@H](C)O1; tested on = BNL mouse liver cells; assay = SRB; setting = 10 µM, 10% fetal bovine serum; endpoint = viability; result = 62.8%
Compound = O=C(Nc1nc2cccc(-c3ccc(CN4CCS(=O)(=O)CC4)cc3)n2n1)C1CC1; assay = item: cardiac disorders; system = human rheumatoid arthritis patients; setting = oral, 300 mg once daily, 4 weeks, regardless of relatedness; endpoint = treatment-emergent adverse events; result = 0%
Compound = Cc1cc(Nc2ccc(S(F)(F)(F)(F)F)cc2)n2nc(C(C)(F)F)nc2n1; tested on = Plasmodium falciparum; system = P. falciparum malaria patients; setting = oral, 250 mg; endpoint = patients with administration site conditions; result = 36.4%
Compound = COc1ccc2nc([S+]([O-])Cc3ncc(CO)c(OC)c3C)[nH]c2c1 (stereo not drawn); tested on = CYP2C19 (Homo sapiens, UniProt P33261); system = human, plasma; setting = oral, 20 mg omeprazole, Day 14, added: encorafenib at steady state; scale = reference: 5-hydroxyomeprazole over omeprazole; endpoint = metabolite to parent Cmax ratio; result = 0.227
Compound = O=C(CCCN1CCC(O)(c2ccc(Cl)cc2)CC1)c1ccc(F)cc1; system = male Hartley guinea pig, anaesthetized; setting = intravenous, 0.01 mg/kg, baseline before infusion; endpoint = QTc interval; result = 343 ± 0.4 ms

Repeated from above:
Compound = Cc1cc(Nc2ccc(S(F)(F)(F)(F)F)cc2)n2nc(C(C)(F)F)nc2n1; tested on = Plasmodium falciparum; system = P. falciparum malaria patients; setting = oral, 250 mg; endpoint = patients with administration site conditions; result = 36.4%
